Published values from different studies.
Each numbered part is a random draw from the data of one study; scales do not carry over between parts.

Series 1 — technique: protein binding microarray; molecule type: double-stranded DNA, one strand shown; medium: in vitro; tested at: not given; reference: not given; reading: higher = stronger binding
Target: Histone acetyltransferase KAT6A, winged helix 2, GST fusion (KAT6A, Homo sapiens, UniProt Q92794, residues 85-181)
Notes: 8-mer, flanks averaged, mean of 2 arrays, mostly near background
Construct (chain): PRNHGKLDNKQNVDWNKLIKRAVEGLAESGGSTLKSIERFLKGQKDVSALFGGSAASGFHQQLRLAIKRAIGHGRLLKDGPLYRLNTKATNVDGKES
`AGGGAACC` has an E-score of 0.0234.
`AGCAATGC` gave an E-score of 0.172.
The E-score of `ATGCTTCG` is reported as 0.128.
`GTTCTCCA` has an E-score of 0.00494.

Series 2 — technique: aptamer microarray, sandwich; molecule type: DNA with 2'F-ANA; medium: in vitro; tested at: 200 nM; together with: Cy3 exosite-II aptamer, 400 nM; reading: higher = stronger binding
Target: Prothrombin, mature alpha-thrombin (F2, Homo sapiens, UniProt P00734)
Notes: whole 15-mer aptamer, many near background
`GGTTGGTGTGGTTGG (2'F-ANA at 2 6 7 10 11 13 14)` — result for “mean fluorescence intensity”: 72.9 a.u.
`GGTTGGTGTGGTTGG (2'F-ANA at 1 5 6 8 10 11 14)`: “mean fluorescence intensity” 49.8 a.u.
`GGTTGGTGTGGTTGG (2'F-ANA at 1 6 7 13 15)`: “mean fluorescence intensity” 136 a.u.

Series 3 — technique: universal PBM; molecule type: double-stranded DNA, one strand shown; medium: in vitro; tested at: not given; reading: higher = stronger binding
Target: Sal-like protein 4, full length isoform B (SALL4, Homo sapiens, UniProt Q9UJQ4-2, residues 1-616)
Notes: 8-mer, flanks averaged, mean of replicates
`CGTGTAAC` gave an E-score of 0.0246.
`TATGAAGA` has an E-score of 0.301.
`CAGGGACC` gave an E-score of -0.293.
The E-score of `GGTTCTAC` is reported as -0.0864.

Single results of other studies
With `PhoQ, residues 284 288 289 292 302 303 SSLVEF` the fold induction was 16.4 (PhoP, residues 12 14 15 18 19 LHTVM (Escherichia coli, UniProt P23836); Sort-seq, measured: YFP reporter; E. coli; PhoQ-PhoP variant library, together with: 10 µM Mg2+; reference: high Mg2+ state, higher = stronger signaling).

Excerpt of the above (series 1):
`AGGGAACC` has an E-score of 0.0234.
`AGCAATGC` gave an E-score of 0.172.
